Results gathered from unrelated publications.
Parts stem from different laboratories: compare values within a part only.
Chain of UniProt P62837 (whole entry, looked up): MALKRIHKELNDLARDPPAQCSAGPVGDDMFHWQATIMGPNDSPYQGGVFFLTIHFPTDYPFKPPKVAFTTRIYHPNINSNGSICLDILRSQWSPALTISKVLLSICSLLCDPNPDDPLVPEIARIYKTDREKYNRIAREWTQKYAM

Sample 1
Target: Prothrombin, mature alpha-thrombin (F2, Homo sapiens, UniProt P00734)
Method: aptamer microarray, sandwich
Form: DNA with 2'F-ANA
Medium: in vitro
Tested at: 200 nM
Setting: whole 15-mer aptamer, many near background
Together with: Cy3 exosite-II aptamer, 400 nM
Reading: higher = stronger binding
Measurement: mean fluorescence intensity
Strand: GGTTGGTGTGGTTGG
2'F-ANA at 3 5 7 8 10 11 14: 54.9 a.u.
2'F-ANA at 1 2 3 6 9 14 15: 67.1 a.u.
2'F-ANA at 1 2 5 6 8 9 13 14: 62.8 a.u.
2'F-ANA at 3 4 11 14 15: 292 a.u.
2'F-ANA at 6 7 9 10 13 14: 113 a.u.
2'F-ANA at 4 7 8 10 11 13: 73.9 a.u.
2'F-ANA at 2 3 4 6 7 9 10 11 12 15: 227 a.u.
2'F-ANA at 1 2 3 5 6 7 9 10 12 13 14: 46.3 a.u.

Sample 2
Target: TAR DNA-binding protein 43, full length, His tag (TARDBP, Homo sapiens, UniProt Q13148, residues 1-414)
Method: RNA Bind-n-Seq
Form: RNA
Medium: in vitro
Tested at: 20 nM
Setting: 6-mer, flanks averaged, single round
Together with: 150 mM KCl
Relative to: input library
Reading: higher = stronger binding
Measurement: 6-mer enrichment (R)
UAUCCC: 0.594
AACCUG: 0.656
GCAAGU: 0.925
AUUAGC: 0.616
UGUAUU: 0.684
GCGCAA: 1.01
UGCAGU: 0.833
UGAGGU: 1.45

Mixed results
B1: CNOT4 RING domain (UniProt O95628); chain MSRSPDAKEDPVECPLCMEPLEIDDINFFPCTCGYQICRFCWHRIRTDENGLCPACRKPYPED
QQRPDLILV  binding (HLA class I histocompatibility antigen, A alpha chain, allele A*25:01 (Homo sapiens, UniProt P04439); peptide-MHC binding; peptide; concentration not given): inactive
B1 (CNOT4 RING domain)  lacZ reporter activity (UBE2D2 UBC core domain (UniProt P62837); yeast two-hybrid; yeast; mostly zero background; relative to: not given, higher = stronger interaction): 15300

For quick reference, copied from above (sample 1):
2'F-ANA at 1 2 3 6 9 14 15: 67.1 a.u.
2'F-ANA at 1 2 5 6 8 9 13 14: 62.8 a.u.
